Assay results of several laboratories.
Every numbered part comes from another study and shows a few of its results, in no order. Substitutions count along the parent as printed.

Block 1 — technique: protein-binding microarray; form: hairpin DNA; matrix: in vitro; tested at: not given; reference: not given; reading: higher = stronger binding
Target: Interferon regulatory factor 1, DNA-binding domain (IRF1, Homo sapiens, UniProt P10914, residues 1-114)
Notes: whole hairpin DNA, median over replicate spots
Target sequence (chain): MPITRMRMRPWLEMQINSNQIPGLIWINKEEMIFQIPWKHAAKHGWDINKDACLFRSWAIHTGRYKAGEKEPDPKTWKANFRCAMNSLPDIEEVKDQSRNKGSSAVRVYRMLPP
Oligonucleotide	median fluorescence
GAGGCCCGCGAGCGAAACGCCTCCTGGCGTTTCGCTCGCGGGCCTCACAC (5mC at 9)	558 a.u.
GAGGCCCCAAAGCGAAACGCCTCCTGGCGTTTCGCTTTGGGGCCTCACAC	802 a.u.
GAGGCCCGAAAGTGCAACGCCTCCTGGCGTTGCACTTTCGGGCCTCACAC (5mC at 15)	538 a.u.
GAGGCCCGCGAGCGAAACGCCTCCTGGCGTTTCGCTCGCGGGCCTCACAC (5mC at 37)	464 a.u.
GAGGCCGGAAAGTGAAACGCCTCCTGGCGTTTCACTTTCCGGCCTCACAC	1490 a.u.
GAGGCCCGAACGTGAAACGCCTCCTGGCGTTTCACGTTCGGGCCTCACAC (5mC at 11 35)	490 a.u.
GAGGCCCGAAAGCGAAACGCCTCCTGGCGTTTCGCTTTCGGGCCTCACAC (5mC at 7 33 39)	880 a.u.
GAGGCCCCAAAGTGAAACGCCTCCTGGCGTTTCACTTTGGGGCCTCACAC (5mC at 8)	972 a.u.

Block 2 — target: CCNB1, cyclin fold, Cln2 fusion (human); technique: yeast growth competition, sequencing; matrix: yeast; notes: weak parent motif; reference: not given; reading: higher = stronger binding; starting sequence: viral docking peptide; KKVKRRLFETREL
Substitution	normalised enrichment score
KKVARRLFETREL [K4A]	-0.207
KAVKRRLFETREL [K2A]	1.31
KKVKKRLLETREL [R5K F8L]	-0.0454
KKVKARLFETREL [R5A]	0.623
KKVKARAFETREL [R5A L7A]	0.482
KKVKRRLLETREL [F8L]	0.374
KKVKRRLFEAREL [T10A]	0.763
KKVKRRLFETAEL [R11A]	1.71
KKVKRRLFETREA [L13A]	0.247
KKVKRRLFATREL [E9A]	0.362

Block 3 — technique: RNA Bind-n-Seq; form: RNA; matrix: in vitro; tested at: not given; reference: input RNA pool; reading: higher = stronger binding
Target: RING finger protein unkempt homolog, zinc fingers 1-6, GST-SBP tag (UNK, Homo sapiens, UniProt Q9C0B0, residues 30-357)
Sequence of UniProt Q9C0B0 (30-357, looked up): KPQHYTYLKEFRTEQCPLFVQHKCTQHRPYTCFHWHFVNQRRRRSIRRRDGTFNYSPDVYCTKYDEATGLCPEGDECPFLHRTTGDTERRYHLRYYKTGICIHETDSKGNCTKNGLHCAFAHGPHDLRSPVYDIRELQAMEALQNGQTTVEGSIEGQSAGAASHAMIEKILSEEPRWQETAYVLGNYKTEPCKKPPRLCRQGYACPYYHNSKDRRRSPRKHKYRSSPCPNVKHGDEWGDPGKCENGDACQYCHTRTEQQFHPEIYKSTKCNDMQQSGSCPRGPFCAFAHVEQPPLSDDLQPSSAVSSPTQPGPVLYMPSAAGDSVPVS
Notes: RNA with constant flanks, human and mouse sites, ends assumed
All sequences stand within: GGGAGUUCUACAGUCCGACGAUC … CAACAGAGGAUUGAGCAUCA
Oligonucleotide	bound/input enrichment
UGGUUCCUGGAAGCUGAAGGCAAUGAAUGGCUACUUCAAGAACAGACCCCAUCUGGAGACAUAGAGAAUAUUUCCAAUCAGCCGGCGAUUUCCCUGCAGAUUCCUACCCAUUGCUUGUCA	0.229 ratio
GAUGGUGCACAUGCCCCAGAGUUGACCAAAAAAGUCCAGCGACACGUGUCUAGCGGAGCCUUUCCUCCUAGUACUAAUGAACAUCUUAAAGAAGACCUCAGCCUUCGCCUGAAAAAGCUG	0.431 ratio
CUCCGAUUUGGAAAAACUAAACAUCUCUCCUGGAGUUCUGGGCAGAGAGAAAACCAGUAGUCAUUUUCUUCGGAACUGUGGAAUGUACCCUUGGGAGUCCCACAAAUCAGGCAGAAGAUG	0.136 ratio
AAAGGAAGUUUGAACAAAGCAAUAGAAGAUUUUGAGCUUGCAUUAGAAAACUGUCCAACUCACAGAAAUGCAAGAAAAUACCUCUGCCAGACACUUGUAGAGAGAGGAGGACAGUUAGAA	3.67 ratio
GGCAUCUGGGCAGCGGACGAUGGAAGAACUCUGGGCUUCGGCUGGGACCUUUCGUUCAUGUAGCAGGAACCGGAGAUGGUUGCGUAGAGCAGCCCACGGUUUUGUGGAAAUCUGAAAACU	0.175 ratio
CAGAGAGCCUUUUACUUCAGAAUAUUGGGGGUGUGGAAACCUCACCUCUUUUUUUCUGCACUUUGUAGCAUCUGACUGACUAAAUGGUUGUCCUCGGUACCAAAAAGGCUGCCAUACAAU	0.194 ratio
AAUAAAGAUGCUCCUCUUCCUGAUGGUCAGAGCCUGCAGGGAACACUGGUCAGCAAAAUCACCUUCCAGCACCCUGGCCGAGUUCCUCUUAUCUUGAAUAUGAUCAGACACCAAGUGGCC	0.287 ratio
AAUGAAGGAACACUGGAUGAUUUUACAGUUAUAAACAGACGCAAAAAGGUAGCCAGCAAUGUAGCAUCAGCAGUGAAAAGGCCAUUUCAUUUCAUGGCAAAUUUUCCUUGUCCACCAUCA	0.297 ratio

Block 4 — read-out: peptide-MHC binding; form: peptide; tested at: concentration not given
Target: HLA class I histocompatibility antigen, A alpha chain, allele A*25:01 (Homo sapiens, UniProt P04439)
Sequence	binding
EFVSANLAM	inactive
KSKPRIHGY	inactive
FKYDSTKPL	inactive
FELLHFISS	inactive
FAEGVIAFL	inactive
AQSDFMSWV	inactive
SMLCWLGMT	inactive
KTFEWGVFY	inactive
VTDTALAYF	inactive
FPSNMMVVT	inactive
YITDYSNDI	inactive
EAYCALLCK	inactive
CLSPVVAGL	inactive
MVFGRFSFA	inactive
TMNSRYYLV	inactive
SVFELSNFA	inactive
LVTMGTGTFGR	inactive
VQPWLMVDV	inactive
KLIDVSKCI	inactive
MTFPLHFRS	inactive
TSACGIFLK	inactive
WTGMVDGWY	inactive
TELPLAYER	inactive
LQKIPLQWF	inactive
ETKKRMDYF	active

A few entries again (block 1):
Oligonucleotide	median fluorescence
GAGGCCCGAACGTGAAACGCCTCCTGGCGTTTCACGTTCGGGCCTCACAC (5mC at 11 35)	490 a.u.
GAGGCCCGAAAGCGAAACGCCTCCTGGCGTTTCGCTTTCGGGCCTCACAC (5mC at 7 33 39)	880 a.u.
GAGGCCCCAAAGCGAAACGCCTCCTGGCGTTTCGCTTTGGGGCCTCACAC	802 a.u.
GAGGCCGGAAAGTGAAACGCCTCCTGGCGTTTCACTTTCCGGCCTCACAC	1490 a.u.
GAGGCCCGCGAGCGAAACGCCTCCTGGCGTTTCGCTCGCGGGCCTCACAC (5mC at 37)	464 a.u.
GAGGCCCGCGAGCGAAACGCCTCCTGGCGTTTCGCTCGCGGGCCTCACAC (5mC at 9)	558 a.u.
